Experimental data of several laboratories.
Cell line: HepG2

Cc1cccc(-c2nc(Nc3ccncn3)c3c(C)csc3n2)n1
IC50 (cell growth or viability, ATP luminescence; 48 h): > 25 µM

CNC(=O)c1cc(Oc2ccc(NC(=O)c3cc(-c4ccc(COC(=O)CCC(=O)OC5OC6OC7(C)CCC8C(C)CCC(C5C)C68OO7)cc4)ccn3)cc2)ccn1 (centres unmarked)
IC50 (cell growth or viability, MTT; 72 h): 19.2 µM

COc1ccc2nc(C)cc(OCC(=O)Nc3cc(C)cc(C)c3)c2c1
IC50 (cell growth or viability, ATP luminescence; 48 h): > 50 µM

NC(=O)c1cccc2c3c([nH]c12)CCC(N)C3 (centres unmarked)
IC50 (cell growth or viability): 0.198 µM

CCCCCCCCCCCCC(=O)O.O=C1CCCC2C3CCCN4CCCC(CN12)C34 (centres unmarked)
IC50 (cell growth or viability, MTT; 24 h): 300 µM

CNC(=O)c1cc(Oc2ccc(NC(=O)c3ccc(-c4ccccc4OC(=O)CCC(=O)OC4OC5OC6(C)CCC7C(C)CCC(C4C)C57OO6)cn3)cc2)ccn1 (centres unmarked)
IC50 (cell growth or viability, MTT; 72 h): 16.3 µM

C[C@@H]1O[C@@H](O[C@H]2[C@H](O[C@H]3CC[C@@]4(C)C(CC[C@]5(C)C4CC=C4C6CC(C)(C)CC[C@]6(C(=O)O)CC[C@]45C)[C@]3(C)CO)OC[C@H](O)[C@@H]2O)[C@H](O)[C@H](O[C@@H]2O[C@H](CO)[C@@H](O)[C@H](O)[C@H]2O)[C@H]1O (some centres unmarked)
IC50 (NF-κB activity, inhibitor, luciferase; TNF-stimulated): 8.1 µM

C=C(CO)[C@H]1Cc2c(ccc3c2O[C@@H]2COc4cc(OC)c(OC)cc4[C@]2(O)C3=O)O1
IC50 (cell growth or viability, MTT; 72 h): 32.6 µM

CC[C@@]1(O)C(=O)OCc2c1cc1n(c2=O)Cc2cc3cc(OC(=O)CCCC(=O)NCC(=O)N[C@@H](Cc4ccccc4)C(=O)N[C@@H](Cc4ccccc4)C(=O)N[C@@H](Cc4ccc(O)cc4)C(=O)NCCSSCCNC(=O)CCC(=O)N[C@@H](CCC(=O)O)C(=O)N[C@@H](CCCNC(=N)N)C(=O)NCC(=O)N[C@@H](CC(=O)O)C(=O)O)ccc3nc2-1
IC50 (cell growth or viability, MTT): 0.355 µM

COc1ccc(CCNc2cc(-c3ccccc3)nc3ncnn23)cc1
IC50 (cell growth or viability, ATP luminescence; 48 h): > 25 µM

O=C1CC2(C1)C(=O)[O][Pt]1([Cl])([O]C(=O)C(F)(F)F)([NH][C@@H]3CCCC[C@H]3[NH]1)[O]C2=O
IC50 (cell growth or viability, MTT): 17.5 µM

Cc1ccc2nc(C)c(C(=O)NCc3cccs3)n2c1
IC50 (cell growth or viability, ATP luminescence; 48 h): > 25 µM

CNC(=O)c1cc(Oc2ccc(NC(=O)c3cc(-c4ccccc4OC(=O)CCC(=O)OC4OC5OC6(C)CCC7C(C)CCC(C4C)C57OO6)ccn3)cc2)ccn1 (centres unmarked)
IC50 (cell growth or viability, MTT; 72 h): 7.23 µM

Cc1cccc(-c2nc(Nc3ccncn3)c3sccc3n2)n1
IC50 (cell growth or viability, ATP luminescence; 48 h): 31.4 µM

CNC(=O)c1cc(Oc2ccc(NC(=O)c3ccc(-c4ccc(OC(=O)CCC(=O)OC5OC6OC7(C)CCC8C(C)CCC(C5C)C68OO7)cc4)cn3)cc2)ccn1 (centres unmarked)
IC50 (cell growth or viability, MTT; 72 h): 8.33 µM

Cc1cn2c(C(=O)NCc3ccc(C(F)(F)F)cc3)c(C)nc2s1
IC50 (cell growth or viability): > 25 µM

C=C1C(=O)O[C@H]2C[C@H](C)C(/C=C/C(C)=O)=CC[C@H]12
IC50 (cell growth or viability, MTT; 24 h): 49 µM

CC[C@@]1(O)C(=O)OCc2c1cc1n(c2=O)Cc2cc3cc(OC(=O)CCCC(=O)NCC(=O)N[C@@H](Cc4ccccc4)C(=O)N[C@@H](Cc4ccccc4)C(=O)N[C@@H](Cc4ccc(OP(=O)(O)O)cc4)C(=O)NCCSSCCNC(=O)CCC(=O)N[C@@H](CCC(=O)O)C(=O)N[C@@H](CCCNC(=N)N)C(=O)NCC(=O)N[C@@H](CC(=O)O)C(=O)O)ccc3nc2-1
IC50 (cell growth or viability, MTT): 0.08 µM

CC1(C)OC2C(COP(=O)(O)O)OC(n3cnc4c(=O)[nH]c(NC(=O)c5ccccc5)nc43)C2O1 (centres unmarked)
IC50 (cell growth or viability): > 100 µM

Cc1ccc2nc(C(F)(F)F)c(C(=O)NCc3cccc(Cl)c3)n2c1
IC50 (cell growth or viability, ATP luminescence; 48 h): > 50 µM

A few entries again:
CNC(=O)c1cc(Oc2ccc(NC(=O)c3cc(-c4ccc(COC(=O)CCC(=O)OC5OC6OC7(C)CCC8C(C)CCC(C5C)C68OO7)cc4)ccn3)cc2)ccn1 (centres unmarked)
IC50 (cell growth or viability, MTT; 72 h): 19.2 µM

COc1ccc2nc(C)cc(OCC(=O)Nc3cc(C)cc(C)c3)c2c1
IC50 (cell growth or viability, ATP luminescence; 48 h): > 50 µM
